Published values collected from several papers.
Numbered parts are unrelated; each lists some results of a single study. Positions count from the first letter of the parent shown.

Set 1 — technique: protein-binding microarray; molecule type: double-stranded DNA, one strand shown; matrix: in vitro; tested at: not given; reading: higher = stronger binding
Target: TATA-box-binding protein 1 (TBP1, Arabidopsis thaliana, UniProt P28147, residues 1-200, full length assumed)
Setting: k-mer, scored over probes, only values ≥0.25
Target sequence (chain): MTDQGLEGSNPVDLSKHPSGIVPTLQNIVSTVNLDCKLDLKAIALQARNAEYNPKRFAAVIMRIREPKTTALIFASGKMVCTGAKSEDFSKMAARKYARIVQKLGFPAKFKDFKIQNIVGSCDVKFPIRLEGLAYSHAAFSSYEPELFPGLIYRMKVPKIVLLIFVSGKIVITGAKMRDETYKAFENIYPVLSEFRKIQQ
`ATATGAA` gave an E-score of 0.313.
`ATAAAAA` has an E-score of 0.449.
`ATTATTA` has an E-score of 0.382.
`GCTATTA` gave an E-score of 0.289.
`AATACTA` has an E-score of 0.255.
`CCATATA` has an E-score of 0.41.
`ATTAATA` gave an E-score of 0.429.
`AAAAATT` has an E-score of 0.286.
With `ATATCAC` the E-score was 0.27.
With `GTAAATA` the E-score was 0.362.
The E-score of `ATATACG` is reported as 0.399.
With `AAAAAGG` the E-score was 0.273.
`ATATTTG` gave an E-score of 0.342.
With `ATTATAA` the E-score was 0.464.
The E-score of `AATATTA` is reported as 0.448.
With `ACTTTTA` the E-score was 0.349.
The E-score of `AATATGG` is reported as 0.264.

Set 2 — technique: protein-binding microarray; molecule type: double-stranded DNA, one strand shown; matrix: in vitro; tested at: 0.8 µM; setting: whole 60-bp probe, no competitor; reading: higher = stronger binding
Target: Centromere-binding protein 1, full length, N-terminal tag (CBF1, Saccharomyces cerevisiae, UniProt P17106, residues 1-351)
UniProt P17106, sequence (whole entry, looked up): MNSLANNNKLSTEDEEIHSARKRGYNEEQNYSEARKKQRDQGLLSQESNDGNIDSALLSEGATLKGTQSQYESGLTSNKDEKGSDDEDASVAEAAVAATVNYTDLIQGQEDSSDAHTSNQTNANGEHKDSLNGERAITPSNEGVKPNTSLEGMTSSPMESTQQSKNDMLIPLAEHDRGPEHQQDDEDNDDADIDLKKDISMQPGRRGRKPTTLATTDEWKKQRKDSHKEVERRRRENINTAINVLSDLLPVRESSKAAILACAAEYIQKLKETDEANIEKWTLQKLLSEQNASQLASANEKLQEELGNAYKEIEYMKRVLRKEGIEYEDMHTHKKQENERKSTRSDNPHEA
`TGTACGAAGCTATCAAGCGTGTCTATAGTAGTTAGGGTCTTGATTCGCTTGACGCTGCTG` has a fluorescence intensity of 532 a.u.
`GAACGCGCAACCGCGCACGTAATTATTTTTACTTAGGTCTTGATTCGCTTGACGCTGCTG` has a fluorescence intensity of 522 a.u.
For `GAACGTTCATTGAAGGTGATGGTATCGGACCTGTAGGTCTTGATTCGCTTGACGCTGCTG`, the fluorescence intensity was 479 a.u.
The fluorescence intensity of `GAAGAACAATTGTGAAACGTGATCAATTCGTGTTAGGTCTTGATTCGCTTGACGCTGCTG` is reported as 3260 a.u.
`GAATGAAACTGATGTCTGATGCTGTTCTTTCTTTAGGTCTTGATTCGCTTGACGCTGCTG` has a fluorescence intensity of 526 a.u.
With `GAAGGCTGTTGGTTTGTCGTGATACGTAGTGCTTAGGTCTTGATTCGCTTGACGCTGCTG` the fluorescence intensity was 565 a.u.
For `CTAACAACGCGTTTCTACGTGGTGGGCAGAAGTTTCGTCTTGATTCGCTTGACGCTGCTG`, the fluorescence intensity was 543 a.u.
`CTACTTCTTCATCACCACGATGTATCTTTTGTTTTCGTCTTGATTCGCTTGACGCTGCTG` gave a fluorescence intensity of 554 a.u.
For `CCTAACTACTATAGACATGTGCAATAGCTTCGTACAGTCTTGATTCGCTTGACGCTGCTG`, the fluorescence intensity was 715 a.u.
`GAATGTAGCCTTGATCATCAGAGTTATATTTCTTAGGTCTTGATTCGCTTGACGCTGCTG` has a fluorescence intensity of 512 a.u.
The fluorescence intensity of `GAATTTTGTGATTGTCACGATCTCAACAAAACATAGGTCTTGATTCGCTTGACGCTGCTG` is reported as 852 a.u.
`CTAGCCAAGAAAGAGCACGTGTAAAAATGGAATTTCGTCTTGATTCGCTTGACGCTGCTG` gave a fluorescence intensity of 7570 a.u.
`GAAACAGAGAGGTAGCAGGTGATTTACGTAGTTTAGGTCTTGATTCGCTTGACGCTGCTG` gave a fluorescence intensity of 839 a.u.
For `CTACGAATAATATATCACGAAATACGGAGGAATTTCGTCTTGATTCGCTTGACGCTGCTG`, the fluorescence intensity was 576 a.u.
`GAACGGCTGAGAGGTGACCTGAAAGAAAGTAGTTAGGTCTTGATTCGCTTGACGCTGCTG` gave a fluorescence intensity of 527 a.u.
With `GAATACGGGAACGACCATCACGTTTCTTTTATGTAGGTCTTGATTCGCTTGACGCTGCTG` the fluorescence intensity was 1160 a.u.
With `CTAATAGGTTGATTAAACGTGTGTTACTCGTTTTTCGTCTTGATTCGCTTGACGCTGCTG` the fluorescence intensity was 494 a.u.
`TGTACGAAGCTATATCACGCGACTATAGTAGTTAGGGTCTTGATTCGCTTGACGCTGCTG` has a fluorescence intensity of 1930 a.u.
`GAATTTCGTTGAAGTGATGTTACCTCATACAATTAGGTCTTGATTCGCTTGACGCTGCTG` gave a fluorescence intensity of 508 a.u.

Set 3 — technique: RNA Bind-n-Seq; molecule type: RNA; matrix: in vitro; tested at: 365 nM; baseline: no-protein control; reading: higher = stronger binding
Target: RNA binding protein fox-1 homolog 2, RRM domain, GST-SBP tag (RBFOX2, Homo sapiens, UniProt O43251-10, residues 100-194)
Setting: natural RNA segment, single round, ends assumed
Under “RBNS enrichment (R)”, `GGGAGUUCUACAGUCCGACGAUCAUUAACAAAAUGUAAUUUCAGAUUAUUCGUUUAUAGGCUUUAUAAUUUUAUGGUUUUUUUUUAAAAUCGUGUUUUGUCACAGAUGCCCCUAGUGUUUGUGCUAACCUAGUUGGAAUUCUCGGGUGCCAA` is recorded as 0.599.
`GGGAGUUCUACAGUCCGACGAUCUUGCUAACAUGCUCACAAAUGUGAGAGAAGAGUCAUUAAAAGCUUUACUUACUGGGUCAGUGCGUCAUUGACUCCUUUCUGUGUUUUGCCCAAUAAAUUAAUAAAAGACUUGGAAUUCUCGGGUGCCAA`: “RBNS enrichment (R)” 0.389.
`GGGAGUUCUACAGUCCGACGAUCCUCCCUAUCCAUGGCACUAAACCACUUCUCUGCUGCCUCUGUGGAAGAGAUUCCUAUUACUGCAGUACAUACGUCUGCCAGGGGUAACCUGGCCACUGUCCCUGUCCUUCUGGAAUUCUCGGGUGCCAA` — result for “RBNS enrichment (R)”: 0.437.
Under “RBNS enrichment (R)”, `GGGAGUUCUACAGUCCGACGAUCUUUGUAAUGAAAUACUUCCUCUUUUCCAGGGCUUUGUAUGCACUUGUAUAAUUACAUUGAUGGCAAUGUAGAGUUUGAAUUUCAGUCUGUAAAUACUUUUUUGGAAAAUAUGGAAUUCUCGGGUGCCAA` is recorded as 1.4.
`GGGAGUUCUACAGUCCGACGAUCUCAGGGAGCAUUUCCUUUUCCUGGGAGUUAUGACCGCGAAGUUGUCAUGUGCCGUGCCCUUUUCUGUUUCUGUGUAUCCUAUUGCUGGUGACUCUGUGUGAACUGGCCUUUGGAAUUCUCGGGUGCCAA`: “RBNS enrichment (R)” 0.67.
Under “RBNS enrichment (R)”, `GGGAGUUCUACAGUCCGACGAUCCCCACAGCAGCCACGCUAGAAGCUUAAUGGAUUCGGAGCCCAUGAGAGAAAGAACACAGGCUUCCUGGUCUGCCCUCCCCCUCCGCUCACCAGGAGCUAAACUGAGAGGCUGGAAUUCUCGGGUGCCAA` is recorded as 1.69.
`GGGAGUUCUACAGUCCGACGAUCCUUAAAGCAGCAUACUUAUUUUUUGUUUAUUUAUUGUGAGCUUUUUACUUUAUUAAGAUUUUACAGCGAAACCCUUACAUGAGUAAUUGAAAUGAAAUUAAAUGAGAUUAUGGAAUUCUCGGGUGCCAA`: “RBNS enrichment (R)” 0.843.
`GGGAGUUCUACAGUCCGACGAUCGUGUGUUUGUGGCUCCAAGUUACAUUUUGUGUUUCAUUGAUCUAUAUGUAUAUAUGUGAUGUUUUCAUAUAUAUAUGUGUGUGUGUUUAAAUUUUGUAUCAUCAGGACUGUGGAAUUCUCGGGUGCCAA` — result for “RBNS enrichment (R)”: 0.637.

Set 4 — target: CCNA2, cyclin fold, Cln2 fusion (human); technique: yeast growth competition, sequencing; matrix: yeast; setting: strong parent motif; baseline: not given; reading: higher = stronger binding
Starting sequence: E2F3 docking peptide (human); PPAKRRLELGESG
`PPAKARLELGESG [R5A]` — result for “normalised enrichment score”: 0.368.
For `PPAKRRLELAESG [G10A]`, “normalised enrichment score” read 3.7.
For `PPAKRRLEFGESG [L9F]`, “normalised enrichment score” read 6.14.
For `PPAKRRAELGESG [L7A]`, “normalised enrichment score” read 0.459.
Under “normalised enrichment score”, `PPAKRALELGESG [R6A]` is recorded as 1.27.
Under “normalised enrichment score”, `PPAKRRLALGESG [E8A]` is recorded as 3.91.
Under “normalised enrichment score”, `PPAKRRLELGASG [E11A]` is recorded as 4.92.

Set 5 — technique: RNA Bind-n-Seq; molecule type: RNA; matrix: in vitro; tested at: 100 nM; baseline: input RNA pool; reading: higher = stronger binding
Target: RING finger protein unkempt homolog, zinc fingers 1-6, SBP tag (UNK, Homo sapiens, UniProt Q9C0B0, residues 30-357)
UniProt Q9C0B0, sequence (30-357, looked up): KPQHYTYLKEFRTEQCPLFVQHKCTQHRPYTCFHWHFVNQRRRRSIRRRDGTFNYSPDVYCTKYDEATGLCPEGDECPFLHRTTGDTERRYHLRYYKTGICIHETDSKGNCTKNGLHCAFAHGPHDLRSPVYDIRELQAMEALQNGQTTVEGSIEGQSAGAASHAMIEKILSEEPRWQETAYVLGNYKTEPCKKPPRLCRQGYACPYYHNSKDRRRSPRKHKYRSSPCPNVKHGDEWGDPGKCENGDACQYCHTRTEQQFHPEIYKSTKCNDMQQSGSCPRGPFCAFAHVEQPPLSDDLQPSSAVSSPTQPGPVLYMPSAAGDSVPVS
Setting: RNA with constant flanks, vertebrate orthologous sites, ends assumed
`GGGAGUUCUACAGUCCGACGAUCUUUCUCCCCCCUCCCAAAGGGAGUGGGGAGAGCCCAGGAUGACCCUCAGCUGUUCCAAUCCAGUAUUUUUUUUUCUUUUUUAAAAUUACUGUAUUUAUUAUGACGAUGGUGACUCCCCAGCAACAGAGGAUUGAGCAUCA` gave a bound/input enrichment of 0.5 ratio.
`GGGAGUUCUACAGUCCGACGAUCCUCUAUGGGCCUCGCAGAGUUGAAAUAAUGGAAGAGGAAAGUGAACAGUAAUCUUCAUUUUAGUAUUUAUGCUUAGAUGUGAAAAUAAAUGUUAUUUGUUGAUCAUUUCUAUAAUCCAGACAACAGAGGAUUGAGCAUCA` has a bound/input enrichment of 0.477 ratio.
`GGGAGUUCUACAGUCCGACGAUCCAUUAACACACACAAUGUCUCCAGGGGGGUAUUAGAUUUCAUUUCUUACAUAUAAAACAAACAAAACCAACCAACGAACCAUUUUUAAAGUAGAAGAGGGUUUAAAAUAGAAAAUGACAUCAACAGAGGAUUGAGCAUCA` has a bound/input enrichment of 2.33 ratio.
With `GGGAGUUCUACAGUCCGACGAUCGGGAGAUAAUGAGUAGUAUAGAAGAGAAACAUUUUUUGUCUUCCUCUUUUAAUCACUACCUAAUCUACUUUUUAAAAUUUGGACUUCACUACUCUGAAUUGAUAAUUCCAAUUUUCACACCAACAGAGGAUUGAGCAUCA` the bound/input enrichment was 0.173 ratio.
`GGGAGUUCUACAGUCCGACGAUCUGCAGGCACAACUGACUGGUUCACAGCAUUCCCUACACAGUUAUUUACCAAGUACAAAUGUAGUUAACUUUCAGGAUACAACCAGGCAGUCAACAUUGUCUUGUAGCCCCAUUGGAGAUGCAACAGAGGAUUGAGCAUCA` has a bound/input enrichment of 0.298 ratio.
The bound/input enrichment of `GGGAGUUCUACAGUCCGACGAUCGUGAGGGCCUACUGACCACUCACUGUUCUGAGUCUGGUAUCUGUAAACACUUUUUGUUCUUAGUCCUUUUCUUGUAUAAUUGAUGUUCUUUAAAAUUGUUAAUGUAAACAGGGCUUCUGUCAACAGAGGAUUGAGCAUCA` is reported as 0.889 ratio.
`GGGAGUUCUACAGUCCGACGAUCUAAUUCAAUGGUUGAGGGUUCAGAACUCAAAAAGGUUCGCUCCAACUCUAGAAUUUAUCAUAGGUACUUUUUACUGGAUGCUGACAUGCAGAGCCUAAGGUGGGAGCCAUCUAAGAAGGACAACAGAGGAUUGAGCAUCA` has a bound/input enrichment of 0.319 ratio.
With `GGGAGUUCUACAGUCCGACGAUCUCAGUCCCCUGGGCUGGGACAGAUUUUUUUUAACGUCUUGAAACUUAAAUUCUGUGCUUGUAGGAGACUGUAACCUUUUUGUCUUUUUUUUUUUACACGAAACAACUUCCACCUCCAGUGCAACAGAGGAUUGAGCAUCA` the bound/input enrichment was 0.388 ratio.

A few entries again (set 1):
With `GTAAATA` the E-score was 0.362.
The E-score of `ATATACG` is reported as 0.399.
With `AAAAAGG` the E-score was 0.273.
`ATATTTG` gave an E-score of 0.342.
With `ATTATAA` the E-score was 0.464.
The E-score of `AATATTA` is reported as 0.448.
With `ACTTTTA` the E-score was 0.349.
